{"data": "Literature values as cited in several papers", "ADRA2A": "Alpha-2A adrenergic receptor (ADRA2A, Homo sapiens, UniProt P08913)", "note": "Lines come from different studies, so protocols differ. ± marks the error that the study gave.", "sequence of UniProt P08913 (whole entry, looked up)": "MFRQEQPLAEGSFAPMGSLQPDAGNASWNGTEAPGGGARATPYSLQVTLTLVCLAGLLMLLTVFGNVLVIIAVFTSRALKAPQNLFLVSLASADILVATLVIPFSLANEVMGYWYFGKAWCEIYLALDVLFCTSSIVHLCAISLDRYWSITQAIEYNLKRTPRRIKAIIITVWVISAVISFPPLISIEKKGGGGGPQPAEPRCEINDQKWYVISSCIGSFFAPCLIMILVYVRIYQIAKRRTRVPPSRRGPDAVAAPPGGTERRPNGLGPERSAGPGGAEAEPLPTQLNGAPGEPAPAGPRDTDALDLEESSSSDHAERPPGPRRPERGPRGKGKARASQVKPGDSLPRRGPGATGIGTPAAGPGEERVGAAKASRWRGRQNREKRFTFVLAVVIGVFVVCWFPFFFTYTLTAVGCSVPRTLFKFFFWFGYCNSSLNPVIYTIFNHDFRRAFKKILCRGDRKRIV", "sequence of UniProt Q96KQ7 (whole entry, looked up)": "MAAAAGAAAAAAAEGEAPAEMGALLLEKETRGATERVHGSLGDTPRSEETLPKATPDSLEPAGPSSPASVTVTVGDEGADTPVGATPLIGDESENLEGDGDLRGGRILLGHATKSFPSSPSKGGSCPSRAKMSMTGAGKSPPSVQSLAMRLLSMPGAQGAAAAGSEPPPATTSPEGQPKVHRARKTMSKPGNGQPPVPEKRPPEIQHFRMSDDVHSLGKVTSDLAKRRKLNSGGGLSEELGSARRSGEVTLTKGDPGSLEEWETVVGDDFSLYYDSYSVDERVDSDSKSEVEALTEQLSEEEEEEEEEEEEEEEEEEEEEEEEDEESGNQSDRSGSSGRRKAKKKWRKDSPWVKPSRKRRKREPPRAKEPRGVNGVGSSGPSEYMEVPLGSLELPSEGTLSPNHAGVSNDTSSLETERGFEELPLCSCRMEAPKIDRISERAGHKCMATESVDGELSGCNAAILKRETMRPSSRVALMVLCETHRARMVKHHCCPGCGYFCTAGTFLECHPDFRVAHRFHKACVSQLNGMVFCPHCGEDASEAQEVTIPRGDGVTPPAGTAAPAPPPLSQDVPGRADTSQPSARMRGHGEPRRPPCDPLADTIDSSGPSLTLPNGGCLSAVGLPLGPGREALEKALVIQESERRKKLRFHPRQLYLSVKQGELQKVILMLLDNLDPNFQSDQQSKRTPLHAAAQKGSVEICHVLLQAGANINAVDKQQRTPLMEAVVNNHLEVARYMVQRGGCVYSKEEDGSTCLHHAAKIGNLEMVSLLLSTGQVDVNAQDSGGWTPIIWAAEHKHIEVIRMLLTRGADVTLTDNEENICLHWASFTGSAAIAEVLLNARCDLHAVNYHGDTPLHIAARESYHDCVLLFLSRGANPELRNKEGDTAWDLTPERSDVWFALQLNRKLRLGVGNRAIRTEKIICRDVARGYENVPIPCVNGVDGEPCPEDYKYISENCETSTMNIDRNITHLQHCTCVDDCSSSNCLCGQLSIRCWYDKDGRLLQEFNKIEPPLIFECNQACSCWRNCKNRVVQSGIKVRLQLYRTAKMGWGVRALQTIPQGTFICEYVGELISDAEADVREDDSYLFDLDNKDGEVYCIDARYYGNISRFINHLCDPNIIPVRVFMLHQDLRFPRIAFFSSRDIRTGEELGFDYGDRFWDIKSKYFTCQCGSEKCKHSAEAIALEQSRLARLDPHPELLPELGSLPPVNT", "sequence of UniProt P00189 (whole entry, looked up)": "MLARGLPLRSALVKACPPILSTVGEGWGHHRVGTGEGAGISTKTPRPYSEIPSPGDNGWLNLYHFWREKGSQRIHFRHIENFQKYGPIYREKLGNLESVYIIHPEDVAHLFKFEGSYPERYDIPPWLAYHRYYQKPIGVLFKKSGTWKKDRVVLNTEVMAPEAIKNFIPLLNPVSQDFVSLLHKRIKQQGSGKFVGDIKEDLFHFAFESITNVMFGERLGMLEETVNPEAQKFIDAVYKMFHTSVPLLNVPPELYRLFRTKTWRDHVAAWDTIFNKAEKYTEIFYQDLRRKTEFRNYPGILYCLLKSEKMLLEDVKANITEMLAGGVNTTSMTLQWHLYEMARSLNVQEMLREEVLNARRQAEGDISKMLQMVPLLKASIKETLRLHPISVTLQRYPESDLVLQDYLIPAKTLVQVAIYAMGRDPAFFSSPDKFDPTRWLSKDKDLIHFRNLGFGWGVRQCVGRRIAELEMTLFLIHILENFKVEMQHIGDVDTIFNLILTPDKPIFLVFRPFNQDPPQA", "sequence of UniProt P15207 (whole entry, looked up)": "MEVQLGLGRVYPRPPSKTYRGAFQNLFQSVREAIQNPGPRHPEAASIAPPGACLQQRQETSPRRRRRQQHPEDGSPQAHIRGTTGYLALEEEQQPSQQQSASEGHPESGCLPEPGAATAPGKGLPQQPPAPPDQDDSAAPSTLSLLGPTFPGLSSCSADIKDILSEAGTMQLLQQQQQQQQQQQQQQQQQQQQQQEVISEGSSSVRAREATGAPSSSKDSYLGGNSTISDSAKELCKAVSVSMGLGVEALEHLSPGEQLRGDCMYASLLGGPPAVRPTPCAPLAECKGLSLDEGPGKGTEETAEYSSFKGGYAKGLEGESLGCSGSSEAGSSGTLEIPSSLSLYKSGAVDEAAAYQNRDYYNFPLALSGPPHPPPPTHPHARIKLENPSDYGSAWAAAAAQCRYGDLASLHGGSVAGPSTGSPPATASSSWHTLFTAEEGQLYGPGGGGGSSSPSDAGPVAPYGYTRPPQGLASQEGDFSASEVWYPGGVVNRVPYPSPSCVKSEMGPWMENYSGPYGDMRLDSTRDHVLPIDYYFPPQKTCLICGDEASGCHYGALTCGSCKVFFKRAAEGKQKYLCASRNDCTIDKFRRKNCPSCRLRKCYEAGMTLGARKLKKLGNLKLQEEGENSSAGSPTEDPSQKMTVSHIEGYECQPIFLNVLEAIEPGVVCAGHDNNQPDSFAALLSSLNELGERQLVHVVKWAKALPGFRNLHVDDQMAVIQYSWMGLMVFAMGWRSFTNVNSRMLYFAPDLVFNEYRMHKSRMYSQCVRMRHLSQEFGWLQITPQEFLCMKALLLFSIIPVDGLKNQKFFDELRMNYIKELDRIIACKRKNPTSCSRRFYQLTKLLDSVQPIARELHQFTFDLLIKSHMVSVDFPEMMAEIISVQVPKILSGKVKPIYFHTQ", "sequence of UniProt Q05397 (whole entry, looked up)": "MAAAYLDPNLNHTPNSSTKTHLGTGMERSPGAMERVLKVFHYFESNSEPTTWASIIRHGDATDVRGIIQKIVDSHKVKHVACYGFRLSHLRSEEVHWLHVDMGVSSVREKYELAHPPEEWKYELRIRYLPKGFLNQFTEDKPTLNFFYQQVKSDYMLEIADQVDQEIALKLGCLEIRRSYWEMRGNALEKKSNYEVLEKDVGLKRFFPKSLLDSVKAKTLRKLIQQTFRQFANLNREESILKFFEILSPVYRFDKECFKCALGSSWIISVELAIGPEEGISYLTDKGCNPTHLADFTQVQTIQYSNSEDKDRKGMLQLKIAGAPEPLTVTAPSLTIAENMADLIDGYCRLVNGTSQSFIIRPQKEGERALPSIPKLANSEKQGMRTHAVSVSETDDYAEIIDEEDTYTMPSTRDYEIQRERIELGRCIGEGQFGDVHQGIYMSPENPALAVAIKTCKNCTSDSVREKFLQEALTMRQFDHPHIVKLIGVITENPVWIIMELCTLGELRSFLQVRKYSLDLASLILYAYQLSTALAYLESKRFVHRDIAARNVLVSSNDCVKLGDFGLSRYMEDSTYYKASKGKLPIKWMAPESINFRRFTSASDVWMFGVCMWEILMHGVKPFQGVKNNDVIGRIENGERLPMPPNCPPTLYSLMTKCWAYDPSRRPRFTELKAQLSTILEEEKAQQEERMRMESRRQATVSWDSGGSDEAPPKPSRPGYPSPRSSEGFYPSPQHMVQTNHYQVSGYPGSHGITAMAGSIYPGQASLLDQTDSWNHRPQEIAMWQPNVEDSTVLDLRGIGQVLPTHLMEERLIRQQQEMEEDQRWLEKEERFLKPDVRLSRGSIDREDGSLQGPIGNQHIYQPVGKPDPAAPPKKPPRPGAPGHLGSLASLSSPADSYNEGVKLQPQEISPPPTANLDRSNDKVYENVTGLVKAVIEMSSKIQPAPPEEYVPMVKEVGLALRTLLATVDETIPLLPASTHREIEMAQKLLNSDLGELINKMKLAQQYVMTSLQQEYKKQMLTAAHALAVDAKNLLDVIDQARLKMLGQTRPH", "sequence of UniProt P41595 (whole entry, looked up)": "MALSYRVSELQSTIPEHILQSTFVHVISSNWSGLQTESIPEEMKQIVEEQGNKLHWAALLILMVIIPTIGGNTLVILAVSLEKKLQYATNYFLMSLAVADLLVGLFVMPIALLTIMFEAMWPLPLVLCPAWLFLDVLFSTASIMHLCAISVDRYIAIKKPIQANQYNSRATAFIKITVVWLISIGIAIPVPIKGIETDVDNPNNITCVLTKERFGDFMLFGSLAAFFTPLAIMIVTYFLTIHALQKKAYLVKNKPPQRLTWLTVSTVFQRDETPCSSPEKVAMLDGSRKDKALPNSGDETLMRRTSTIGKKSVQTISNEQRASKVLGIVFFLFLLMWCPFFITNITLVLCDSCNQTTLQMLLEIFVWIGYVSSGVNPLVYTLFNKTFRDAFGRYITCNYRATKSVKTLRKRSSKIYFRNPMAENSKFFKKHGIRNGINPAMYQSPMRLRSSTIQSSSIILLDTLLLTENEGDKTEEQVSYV"}
{"Structure (SMILES)": "Nc1nc2c(ncn2[C@@H]2O[C@H](COP(=O)(O)OP(=O)(O)O)[C@@H](O)[C@H]2O)c(=O)[nH]1", "target or system": "MiD51", "conditions": "concentration not given", "quantity": "binding", "result": "binds"}
{"Structure (SMILES)": "CCN(c1cc(-c2ccc(CN3CCOCC3)cc2)cc(C(=O)NCc2c(C)cc(C)[nH]c2=O)c1C)C1CCOCC1", "target or system": "Histone-lysine N-methyltransferase EHMT2 (EHMT2, Homo sapiens, UniProt Q96KQ7)", "test": "enzyme activity, inhibitor", "conditions": "1 µM", "quantity": "inhibition", "result": "7 ± 3%"}
{"Structure (SMILES)": "C[C@]12CC[C@@H]3c4ccc(O)cc4CC[C@H]3[C@@H]1CCC2=O", "target or system": "Androgen receptor (Ar, Rattus norvegicus, UniProt P15207)", "conditions": "concentration not given", "quantity": "activity class", "result": "active"}
{"Structure (SMILES)": "Nc1cc(C(F)(F)F)c(-c2nc(N3CCOCC3)nc(N3CCOCC3)n2)cn1", "target or system": "Mitogen-activated protein kinase kinase kinase 15 (MAP3K15, Homo sapiens, UniProt Q6ZN16)", "test": "enzyme activity", "conditions": "10 µM", "how to read": "reference: untreated", "quantity": "remaining activity", "result": "100%"}
{"Structure (SMILES)": "O=C(CCCCCCc1ccccc1)c1ncc(-c2ccccn2)o1", "target or system": "cannabinoid CB2 receptor", "conditions": "concentration not given", "quantity": "binding", "result": "no binding"}
{"Structure (SMILES)": "CC(=O)N[C@@H](COP(=O)(O)O)C(=O)N1CCC[C@H]1C(=O)N[C@@H](C)C(=O)N[C@@H](Cc1ccccc1)C(N)=O", "target or system": "Breast cancer type 1 susceptibility protein, tandem BRCT domains (BRCA1, Homo sapiens, UniProt P38398)", "test": "isothermal titration calorimetry", "quantity": "ΔG", "result": "-5.9 ± 0.2 kcal/mol"}
{"Structure (SMILES)": "COc1ccn2c(c1)nc1c2c(=O)[nH]c(=O)n1Cc1ccccc1", "target or system": "Adenosine receptor A1 (ADORA1, Homo sapiens, UniProt P30542)", "conditions": "10 µM, with: [3H]DPCPX", "quantity": "radioligand displacement", "result": "49%"}
{"Structure (SMILES)": "CO[C@@H]1O[C@H](CO)[C@H](O)[C@H](O)[C@H]1O", "target or system": "PA-I galactophilic lectin (lecA, Pseudomonas aeruginosa, UniProt Q05097)", "test": "ITC", "quantity": "-TΔS", "result": "3.59 kcal/mol"}
{"Structure (SMILES)": "O=C(c1ccc(F)cc1)C1CCN(CCn2c(=O)[nH]c3ccccc3c2=O)CC1", "target or system": "5-hydroxytryptamine receptor 2B (HTR2B, Homo sapiens, UniProt P41595)", "test": "binding", "quantity": "Hill coefficient", "result": 0.6}
{"Structure (SMILES)": "CCCCCN1C[C@H](O)[C@@H](O)[C@H](O)[C@@H]1CO", "target or system": "lactase", "conditions": "concentration not given", "quantity": "inhibition", "result": "inactive"}
{"Structure (SMILES)": "CC1=CC(=O)CC(C)(C)C1=O", "target or system": "Old Yellow Enzyme 1", "test": "substrate", "quantity": "conversion", "result": "88 to 99%"}
{"Structure (SMILES)": "Cc1c(C#N)cccc1[C@@H](C)Nc1nnc(C)c2cnc(N3CCOCC3)cc12", "target or system": "ASPC1", "test": "3D cell viability", "conditions": "14 d", "quantity": "IC50", "result": "> 1 µM"}
{"Structure (SMILES)": "FC(F)(F)c1ccc(Nc2ncnc3c2CCN(c2ncccc2C(F)(F)F)C3)cc1", "target or system": "TRPV1", "test": "calcium flux, antagonist", "system": "HEK293", "conditions": "with: capsaicin", "quantity": "IC50", "result": "0.015 µM"}
{"Structure (SMILES)": "Cc1nc(NC(=O)N2CCC[C@H]2C(N)=O)sc1-c1ccnc(C(C)(C)C(F)(F)F)c1", "target or system": "Phosphatidylinositol 4,5-bisphosphate 3-kinase catalytic subunit gamma isoform (PIK3CG, Homo sapiens, UniProt P48736)", "test": "KinomeScan competition binding", "conditions": "10 µM", "quantity": "remaining binding", "result": "0%"}
{"Structure (SMILES)": "COC(=O)[C@@H]1[C@H]2C[C@H]3c4[nH]c5ccccc5c4CCN3C[C@@H]2CC[C@@H]1O", "target or system": "ADRA2A", "conditions": "historical reference value", "quantity": "Hill coefficient", "result": 0.9}
{"Structure (SMILES)": "COc1ccc(C[C@H](N)C(=O)N[C@H]2[C@@H](O)[C@H](n3cnc4c(N(C)C)ncnc43)O[C@@H]2CO)cc1", "target or system": "Aminopeptidase N (ANPEP, Homo sapiens, UniProt P15144)", "test": "enzyme activity", "conditions": "10 µM", "quantity": "inhibition", "result": "15.7%"}
{"Structure (SMILES)": "Nc1cc(C(F)(F)F)c(-c2nc(N3CCOCC3)nc(N3CCOCC3)n2)cn1", "target or system": "Tyrosine-protein kinase JAK1, JH2 pseudokinase domain (JAK1, Homo sapiens, UniProt P23458)", "test": "KinomeScan competition binding", "conditions": "10 µM", "quantity": "remaining binding", "result": "20%"}
{"Structure (SMILES)": "CC1(C)S[C@@H]2[C@H](NC(=O)[C@H](N)c3ccccc3)C(=O)N2[C@H]1C(=O)O", "target or system": "Klebsiella pneumoniae", "system": "clinical isolate RKI-No_268/15", "quantity": "MIC", "result": "> 16 µg/mL"}
{"Structure (SMILES)": "CNC(=O)[C@H]1O[C@@H](n2cnc3c(NCc4cccc(I)c4)ncnc32)[C@H](O)[C@@H]1O", "target or system": "Adenosine receptor A3 (ADORA3, Homo sapiens, UniProt P0DMS8)", "conditions": "historical reference value", "quantity": "Hill coefficient", "result": 0.8}
{"Structure (SMILES)": "O=C(Nc1nc2ccccc2[nH]1)c1ccccc1", "target or system": "SUMO1/sentrin specific peptidase 7", "conditions": "12.5 µM, PubChem AID 488917", "quantity": "response", "result": "100%"}
{"Structure (SMILES)": "Cc1cc(NS(=O)(=O)c2ccc(N)cc2)no1", "target or system": "NAT1", "test": "substrate", "quantity": "Km", "result": "1200 µM"}
{"Structure (SMILES)": "Nc1ncnc2c1ncn2[C@@H]1O[C@H](COP(=O)(O)OP(=O)(O)OP(=O)(O)O)[C@@H](O)[C@H]1O", "target or system": "AsnA asparagine synthetase (Ligilactobacillus salivarius)", "test": "substrate", "quantity": "Km", "result": "2000 µM"}
{"Structure (SMILES)": "Cc1cc(NC(=O)c2cccc(NC(=O)/C=C/CN(C)C)c2)ccc1Nc1nccc(-c2cccnc2)n1", "target or system": "Focal adhesion kinase 1 (PTK2, Homo sapiens, UniProt Q05397)", "test": "enzyme activity, inhibitor", "conditions": "1 µM", "how to read": "reference: vehicle", "quantity": "remaining activity", "result": "11%"}
{"Structure (SMILES)": "COc1cc2nc(N3CCN(C(=O)c4ccco4)CC3)nc(N)c2cc1OC", "target or system": "Alpha-1A adrenergic receptor (Adra1a, Rattus norvegicus, UniProt P43140)", "conditions": "historical reference value", "quantity": "Hill coefficient", "result": 0.9}
{"Structure (SMILES)": "Cc1ccc2cccc(NC(=O)c3ccc(OC(C)C)cc3)c2n1", "target or system": "SERCA2a", "conditions": "concentration not given", "quantity": "ATPase activity", "result": "increased"}
{"Structure (SMILES)": "C[N+](C)(C)C[C@H](O)CC(=O)[O-]", "target or system": "Methyl-accepting chemotaxis protein, ligand-binding domain (Pectobacterium atrosepticum, UniProt Q6D515)", "test": "isothermal titration calorimetry", "conditions": "concentration not given", "quantity": "binding enthalpy (ΔH)", "result": "-4.8 ± 0.7 kcal/mol"}
{"Structure (SMILES)": "Cc1cc(O)c2c(c1)C(=O)c1cc(O)cc(O)c1C2=O", "target or system": "Vasopressin V1a receptor (AVPR1A, Homo sapiens, UniProt P37288)", "test": "antagonist", "conditions": "50 µM", "quantity": "inhibition", "result": "69.3 ± 1.34%"}
{"Structure (SMILES)": "CC(C)=CCCC(C)=CC=O (mixture of isomers)", "target or system": "Old Yellow Enzyme 1", "test": "substrate", "quantity": "conversion", "result": "49 to 98%"}
{"Structure (SMILES)": "O=c1c2ccccc2nc2n1CCc1c-2[nH]c2ccccc12", "target or system": "Aryl hydrocarbon receptor (Ahr, Rattus norvegicus, UniProt P41738)", "conditions": "50% effect level", "how to read": "reference: benzo[a]pyrene", "quantity": "relative potency", "result": 2}
{"Structure (SMILES)": "C[C@]12CC[C@@H]3c4ccc(O)cc4C[C@@H](CCCCCCCCC[S+]([O-])CCCC(F)(F)C(F)(F)F)[C@H]3[C@@H]1CC[C@@H]2O (stereo partly shown)", "target or system": "Estrogen receptor (ESR1, Homo sapiens, UniProt P03372)", "test": "degrader", "system": "human patients", "conditions": "500 mg", "quantity": "average degradation", "result": "~50%"}
{"Structure (SMILES)": "COC(=O)[C@@H]1[C@H]2C[C@H]3c4[nH]c5ccccc5c4CCN3C[C@@H]2CC[C@@H]1O", "target or system": "ADRA2A", "test": "binding", "quantity": "Hill coefficient", "result": 0.9}
{"Structure (SMILES)": "CNC(C)C1CCC(N)C(OC2C(N)CC(N)C(OC3OCC(C)(O)C(NC)C3O)C2O)O1 (stereo not shown)", "target or system": "Klebsiella pneumoniae", "system": "clinical isolate RKI-No_268/15", "quantity": "MIC", "result": "1 µg/mL"}
{"Structure (SMILES)": "CC(C)(O/N=C(\\C(=O)N[C@@H]1C(=O)N2C(C(=O)[O-])=C(C[N+]3(CCNC(=O)c4ccc(O)c(O)c4Cl)CCCC3)CS[C@H]12)c1csc(N)n1)C(=O)O", "target or system": "KPC-33", "test": "hydrolysis by enzyme, substrate", "quantity": "Km", "result": "3 µM"}
{"Structure (SMILES)": "C=CC(=O)N1CCC(C(=O)NCC(=O)N2CCN(c3nc(-c4cnc(N)nc4C(F)F)nc(N4CCOCC4)n3)CC2)CC1", "target or system": "Phosphatidylinositol 4,5-bisphosphate 3-kinase catalytic subunit alpha isoform (PIK3CA, Homo sapiens, UniProt P42336, I800L)", "test": "kinase activity", "conditions": "1 µM", "quantity": "remaining activity", "result": "0%"}
{"Structure (SMILES)": "CC(C)CCC[C@@H](C)[C@H]1CC[C@H]2[C@@H]3CC=C4C[C@@H](O)CC[C@]4(C)[C@H]3CC[C@]12C", "target or system": "Cholesterol side-chain cleavage enzyme, mitochondrial (Bos taurus, UniProt P00189)", "test": "substrate", "quantity": "metabolism rate", "result": "6.1 mol/min/mol"}
{"Structure (SMILES)": "O=C(NCc1ccc(OC(F)(F)F)cc1)Nc1cccc2cnccc12", "target or system": "TRPV1", "test": "calcium flux, antagonist", "system": "HEK293", "conditions": "with: capsaicin", "quantity": "IC50", "result": "0.003 µM"}
{"Structure (SMILES)": "COC(=O)[C@H](c1ccccc1Cl)N1CCc2sccc2C1", "target or system": "CES2", "quantity": "Km", "result": "14.1 µM"}
{"Structure (SMILES)": "OC[C@H]1OC(O)[C@H](O)[C@@H](O)[C@@H]1O (stereo partly shown)", "target or system": "human hexokinase 4", "test": "substrate", "quantity": "K0.5", "result": "8.4 ± 0.2 mM"}
{"Structure (SMILES)": "NCCc1c[nH]c2ccc(O)cc12", "target or system": "5-HT2A receptor Y7.43A", "conditions": "concentration not given", "how to read": "reference: wild type receptor", "quantity": "efficacy reduction", "result": "10 fold"}
{"Structure (SMILES)": "Cc1c(CN2CCN(C(=O)[C@H](C)O)CC2)sc2c(N3CCOCC3)nc(-c3cnc(N)nc3)nc12", "target or system": "Macrophage colony-stimulating factor 1 receptor, autoinhibited (CSF1R, Homo sapiens, UniProt P07333)", "test": "KinomeScan competition binding", "conditions": "10 µM", "quantity": "remaining binding", "result": "19%"}
{"note": "Some of these lines once more:"}
{"Structure (SMILES)": "CO[C@@H]1O[C@H](CO)[C@H](O)[C@H](O)[C@H]1O", "target or system": "PA-I galactophilic lectin (lecA, Pseudomonas aeruginosa, UniProt Q05097)", "test": "ITC", "quantity": "-TΔS", "result": "3.59 kcal/mol"}
{"Structure (SMILES)": "FC(F)(F)c1ccc(Nc2ncnc3c2CCN(c2ncccc2C(F)(F)F)C3)cc1", "target or system": "TRPV1", "test": "calcium flux, antagonist", "system": "HEK293", "conditions": "with: capsaicin", "quantity": "IC50", "result": "0.015 µM"}
{"Structure (SMILES)": "CC(C)(O/N=C(\\C(=O)N[C@@H]1C(=O)N2C(C(=O)[O-])=C(C[N+]3(CCNC(=O)c4ccc(O)c(O)c4Cl)CCCC3)CS[C@H]12)c1csc(N)n1)C(=O)O", "target or system": "KPC-33", "test": "hydrolysis by enzyme, substrate", "quantity": "Km", "result": "3 µM"}
